Experimental data collected from several papers.
Every numbered part comes from another study and shows a few of its results, in no order.
Sequence of UniProt Q8N4C8 (whole entry, looked up): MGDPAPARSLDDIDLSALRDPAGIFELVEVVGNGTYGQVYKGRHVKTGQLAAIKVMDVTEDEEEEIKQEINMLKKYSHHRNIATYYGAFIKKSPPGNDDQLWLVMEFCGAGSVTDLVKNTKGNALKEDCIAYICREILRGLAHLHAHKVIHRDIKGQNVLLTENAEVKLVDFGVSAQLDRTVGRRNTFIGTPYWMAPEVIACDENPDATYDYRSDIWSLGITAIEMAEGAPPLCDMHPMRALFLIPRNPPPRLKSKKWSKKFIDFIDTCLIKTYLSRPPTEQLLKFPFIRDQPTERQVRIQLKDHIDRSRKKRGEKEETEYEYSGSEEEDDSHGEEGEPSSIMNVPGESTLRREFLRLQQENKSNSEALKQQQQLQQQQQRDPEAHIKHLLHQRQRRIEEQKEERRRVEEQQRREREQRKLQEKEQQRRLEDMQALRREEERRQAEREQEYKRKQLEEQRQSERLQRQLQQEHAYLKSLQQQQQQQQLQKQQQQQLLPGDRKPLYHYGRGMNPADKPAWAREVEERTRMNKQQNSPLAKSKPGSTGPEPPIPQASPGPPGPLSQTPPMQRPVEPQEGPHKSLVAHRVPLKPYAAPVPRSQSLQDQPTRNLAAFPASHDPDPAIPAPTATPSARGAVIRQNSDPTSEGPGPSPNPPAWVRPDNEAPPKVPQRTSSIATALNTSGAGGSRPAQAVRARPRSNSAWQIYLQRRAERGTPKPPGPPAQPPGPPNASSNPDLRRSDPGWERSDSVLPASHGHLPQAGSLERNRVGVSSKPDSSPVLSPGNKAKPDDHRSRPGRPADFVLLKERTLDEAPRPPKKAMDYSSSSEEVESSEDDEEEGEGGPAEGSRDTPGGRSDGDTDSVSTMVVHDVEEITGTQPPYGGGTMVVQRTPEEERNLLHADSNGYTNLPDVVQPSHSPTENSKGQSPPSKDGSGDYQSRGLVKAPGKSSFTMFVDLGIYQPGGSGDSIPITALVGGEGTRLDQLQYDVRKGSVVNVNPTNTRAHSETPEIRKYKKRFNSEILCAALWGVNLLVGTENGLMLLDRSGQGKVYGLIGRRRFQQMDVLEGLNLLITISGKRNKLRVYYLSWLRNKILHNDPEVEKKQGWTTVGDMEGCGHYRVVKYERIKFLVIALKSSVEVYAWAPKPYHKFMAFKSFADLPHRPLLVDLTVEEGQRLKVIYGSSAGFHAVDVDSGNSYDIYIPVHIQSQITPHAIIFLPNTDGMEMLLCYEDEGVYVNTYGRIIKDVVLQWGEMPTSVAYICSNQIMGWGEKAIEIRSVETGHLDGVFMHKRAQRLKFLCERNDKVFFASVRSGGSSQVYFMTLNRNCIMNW
Sequence of UniProt P49761 (whole entry, looked up): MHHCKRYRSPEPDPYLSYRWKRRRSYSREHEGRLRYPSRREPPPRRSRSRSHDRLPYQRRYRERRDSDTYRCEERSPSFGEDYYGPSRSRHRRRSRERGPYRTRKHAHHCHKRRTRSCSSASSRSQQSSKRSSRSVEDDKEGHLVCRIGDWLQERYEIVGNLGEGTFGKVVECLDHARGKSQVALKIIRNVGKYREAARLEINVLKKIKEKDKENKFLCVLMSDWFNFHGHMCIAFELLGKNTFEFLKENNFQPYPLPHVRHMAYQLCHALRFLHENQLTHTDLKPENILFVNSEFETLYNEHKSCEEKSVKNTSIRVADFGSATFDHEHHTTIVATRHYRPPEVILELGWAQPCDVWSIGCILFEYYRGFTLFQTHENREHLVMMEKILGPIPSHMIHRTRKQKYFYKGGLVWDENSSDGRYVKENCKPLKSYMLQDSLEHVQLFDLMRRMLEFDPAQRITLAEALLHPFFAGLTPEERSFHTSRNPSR
Sequence of UniProt Q9UQB9 (whole entry, looked up): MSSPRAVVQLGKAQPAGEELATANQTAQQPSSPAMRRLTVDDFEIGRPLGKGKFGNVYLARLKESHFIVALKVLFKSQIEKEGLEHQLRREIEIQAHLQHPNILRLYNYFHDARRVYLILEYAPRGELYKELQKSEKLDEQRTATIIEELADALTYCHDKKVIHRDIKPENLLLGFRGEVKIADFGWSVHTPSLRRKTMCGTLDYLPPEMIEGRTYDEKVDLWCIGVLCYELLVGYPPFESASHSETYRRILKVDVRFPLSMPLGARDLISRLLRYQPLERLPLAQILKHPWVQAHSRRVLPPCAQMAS
Sequence of UniProt P35372 (whole entry, looked up): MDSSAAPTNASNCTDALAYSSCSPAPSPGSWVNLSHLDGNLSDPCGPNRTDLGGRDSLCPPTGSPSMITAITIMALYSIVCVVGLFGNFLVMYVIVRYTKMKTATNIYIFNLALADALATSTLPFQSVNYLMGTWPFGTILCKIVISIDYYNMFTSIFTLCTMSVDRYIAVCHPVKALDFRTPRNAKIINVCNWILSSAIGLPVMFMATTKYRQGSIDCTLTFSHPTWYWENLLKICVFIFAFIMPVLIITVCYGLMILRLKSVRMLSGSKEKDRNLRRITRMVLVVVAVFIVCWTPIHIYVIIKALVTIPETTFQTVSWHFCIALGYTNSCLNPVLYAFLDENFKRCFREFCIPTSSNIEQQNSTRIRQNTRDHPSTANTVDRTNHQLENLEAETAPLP
Sequence of UniProt P52564 (whole entry, looked up): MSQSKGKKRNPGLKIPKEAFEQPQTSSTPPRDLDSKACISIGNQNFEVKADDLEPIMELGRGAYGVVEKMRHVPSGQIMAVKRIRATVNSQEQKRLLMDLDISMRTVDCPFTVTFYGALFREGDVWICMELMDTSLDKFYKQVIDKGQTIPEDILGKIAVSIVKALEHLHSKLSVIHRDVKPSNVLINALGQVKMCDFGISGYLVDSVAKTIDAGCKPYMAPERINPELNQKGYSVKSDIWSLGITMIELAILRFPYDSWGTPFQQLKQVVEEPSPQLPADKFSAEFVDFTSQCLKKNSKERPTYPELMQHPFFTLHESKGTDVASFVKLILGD
Sequence of UniProt O94921 (whole entry, looked up): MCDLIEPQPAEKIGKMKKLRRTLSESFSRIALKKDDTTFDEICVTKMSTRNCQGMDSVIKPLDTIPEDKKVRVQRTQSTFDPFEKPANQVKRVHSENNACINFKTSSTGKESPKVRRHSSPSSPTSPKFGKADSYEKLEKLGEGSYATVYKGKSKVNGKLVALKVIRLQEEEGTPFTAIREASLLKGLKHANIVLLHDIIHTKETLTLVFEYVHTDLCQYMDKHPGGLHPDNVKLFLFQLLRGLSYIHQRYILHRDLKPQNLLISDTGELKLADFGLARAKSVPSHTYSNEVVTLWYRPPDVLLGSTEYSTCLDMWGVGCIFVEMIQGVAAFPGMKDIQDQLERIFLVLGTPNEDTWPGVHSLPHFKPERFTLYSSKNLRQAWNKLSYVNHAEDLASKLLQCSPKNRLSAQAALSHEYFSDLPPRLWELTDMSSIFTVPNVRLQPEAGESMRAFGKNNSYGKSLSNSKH
Sequence of UniProt Q13470 (whole entry, looked up): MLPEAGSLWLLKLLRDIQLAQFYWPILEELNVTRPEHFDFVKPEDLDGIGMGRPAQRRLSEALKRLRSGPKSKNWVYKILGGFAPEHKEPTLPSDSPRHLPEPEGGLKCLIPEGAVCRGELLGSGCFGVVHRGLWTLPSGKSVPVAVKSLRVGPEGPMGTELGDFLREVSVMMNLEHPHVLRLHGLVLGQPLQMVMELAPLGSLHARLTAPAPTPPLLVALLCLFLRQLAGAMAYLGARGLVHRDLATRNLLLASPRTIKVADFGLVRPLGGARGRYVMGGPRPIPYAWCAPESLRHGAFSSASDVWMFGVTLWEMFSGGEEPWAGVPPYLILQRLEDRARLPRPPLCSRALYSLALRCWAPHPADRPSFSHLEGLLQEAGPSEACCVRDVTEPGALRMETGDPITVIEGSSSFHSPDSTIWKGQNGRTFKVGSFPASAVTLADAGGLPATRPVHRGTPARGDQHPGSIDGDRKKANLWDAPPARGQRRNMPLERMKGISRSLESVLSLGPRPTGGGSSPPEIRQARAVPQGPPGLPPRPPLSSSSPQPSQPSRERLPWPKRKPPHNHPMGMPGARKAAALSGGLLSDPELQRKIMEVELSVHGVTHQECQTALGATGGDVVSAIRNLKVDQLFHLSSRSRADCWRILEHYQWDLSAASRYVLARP

Study 1
Species: mouse
Sample: microsomes or S9
Concentration: 2 µM
Time: 0.5 h
Structure (SMILES) | remaining compound
CCOC(=O)Cn1c(=N)sc2cc3c(cc21)OCCO3 | 1.32%
Fc1ccccc1C(c1nnc(-c2ccccc2)o1)N1CCc2ccccc2C1 (stereo not shown) | 2.46%
COc1ccccc1N1C(=O)c2c(NC(C)=O)c3cc(F)ccc3n2CC1(C)C(=O)NC1CCCC1 (stereo not shown) | 8.84%
C[C@@H](C(=O)NOC(C)(C)C)N1C(=O)Nc2cc(Cl)cc(Cl)c2S1(=O)=O | 61.2%
CN(C(=O)CN1C(=O)COc2cc(Cl)c(Cl)cc21)C(CN1CCCC1)c1ccc(Br)cc1 (stereo not shown) | > 100%
COc1cccc(-c2nc3cnccn3c2NCCC(=O)Nc2ccc3c(c2)OCCO3)c1 | 3.02%
c1ccc2c(c1)CC(N1CCCCC1)c1ccccc1N2 (stereo not shown) | 50%
CCS(=O)(=O)c1ccc(Cc2ccc(S(=O)(=O)CC)cc2)cc1 | > 99%

Study 2
Structure (SMILES): O=C(Nc1cnn(-c2csc(C(=O)NC3COC3)c2)c1)Nc1ccccc1Cl
Read-out: enzyme activity
Concentration: 5 µM
Baseline: untreated control
target | remaining activity
Non-receptor tyrosine-protein kinase TNK1 (TNK1, Homo sapiens, UniProt Q13470) | 98.3%
Tyrosine-protein kinase Srms (SRMS, Homo sapiens, UniProt Q9H3Y6) | 99.2%
Cyclin-dependent kinase 14 (CDK14, Homo sapiens, UniProt O94921) | 106%
Aurora kinase C (AURKC, Homo sapiens, UniProt Q9UQB9) | 100%
Misshapen-like kinase 1 (MINK1, Homo sapiens, UniProt Q8N4C8) | 78.6%
TRAF2 and NCK-interacting protein kinase (TNIK, Homo sapiens, UniProt Q9UKE5) | 51.9%
Dual specificity mitogen-activated protein kinase kinase 6 (MAP2K6, Homo sapiens, UniProt P52564) | 95.1%
Dual specificity protein kinase CLK3 (CLK3, Homo sapiens, UniProt P49761) | 117%

Study 3
Compound: C=CCc1ccc(O)c(-c2ccc(O)c(CC=C)c2)c1
Read-out: chloride current
Method: whole-cell voltage clamp
ANO1 del476-501: Anoctamin-1 (ANO1, Homo sapiens, UniProt Q5XXA6, del476-501)
Sequence of UniProt Q5XXA6 (whole entry, unmodified, looked up): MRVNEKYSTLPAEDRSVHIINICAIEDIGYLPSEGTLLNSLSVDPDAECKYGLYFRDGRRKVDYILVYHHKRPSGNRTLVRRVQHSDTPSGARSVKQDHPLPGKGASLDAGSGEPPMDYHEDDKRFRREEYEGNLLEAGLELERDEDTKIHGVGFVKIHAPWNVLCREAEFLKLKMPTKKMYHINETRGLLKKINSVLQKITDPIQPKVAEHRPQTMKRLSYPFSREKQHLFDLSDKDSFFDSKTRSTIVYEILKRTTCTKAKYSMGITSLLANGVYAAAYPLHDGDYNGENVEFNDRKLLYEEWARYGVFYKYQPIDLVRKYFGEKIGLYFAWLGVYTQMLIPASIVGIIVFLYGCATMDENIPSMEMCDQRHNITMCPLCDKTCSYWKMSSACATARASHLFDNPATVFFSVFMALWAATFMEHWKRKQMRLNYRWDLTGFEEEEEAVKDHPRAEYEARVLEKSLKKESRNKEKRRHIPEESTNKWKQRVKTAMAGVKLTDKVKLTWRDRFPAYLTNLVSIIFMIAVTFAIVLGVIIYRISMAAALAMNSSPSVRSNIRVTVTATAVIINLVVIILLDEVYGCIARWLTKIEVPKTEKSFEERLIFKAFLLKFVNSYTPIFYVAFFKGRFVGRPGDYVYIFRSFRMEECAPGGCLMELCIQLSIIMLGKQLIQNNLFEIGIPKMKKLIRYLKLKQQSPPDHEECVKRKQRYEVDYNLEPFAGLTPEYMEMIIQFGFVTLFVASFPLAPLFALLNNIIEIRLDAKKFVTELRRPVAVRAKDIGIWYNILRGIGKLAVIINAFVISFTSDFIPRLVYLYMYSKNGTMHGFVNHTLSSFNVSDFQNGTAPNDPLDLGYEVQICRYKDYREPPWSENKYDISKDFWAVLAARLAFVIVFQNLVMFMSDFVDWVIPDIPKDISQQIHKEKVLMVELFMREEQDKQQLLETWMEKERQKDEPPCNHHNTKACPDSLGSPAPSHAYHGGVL
target | mode | concentration | notes | added | IC50 [µM]
Anoctamin-1 (ANO1, Homo sapiens, UniProt Q5XXA6, del476-501/F628W) | inhibitor | 80 mV holding voltage |  |  | 13.9
Anoctamin-1 (ANO1, Homo sapiens, UniProt Q5XXA6, del476-501/F627A) | inhibitor |  | mutant F601A at 100 mV | 300 nM Ca2+ | 7.55
ANO1 del476-501 |  |  | membrane voltage 80 mV | 300 nM Ca2+ | 4.85
Anoctamin-1 (ANO1, Homo sapiens, UniProt Q5XXA6, D383A/del476-501) |  |  | membrane voltage 40 mV |  | 4.33
Anoctamin-1 (ANO1, Homo sapiens, UniProt Q5XXA6, del476-501/F623A) |  |  | membrane voltage -80 mV |  | 18.5
ANO1 del476-501 |  |  | membrane voltage 100 mV | 300 nM Ca2+ | 6.37
Anoctamin-1 (ANO1, Homo sapiens, UniProt Q5XXA6, del476-501/F628Y) | inhibitor | 40 mV holding voltage |  |  | 24.7
ANO1 del476-501 | inhibitor |  | 60 mV voltage | 300 nM Ca2+ | 4.02

Single results of other studies
SMILES | target | read-out | concentration | quantity | value
CN([C@@H]1CCc2c(CC(=O)O)c3ccccc3n2C1)S(=O)(=O)c1ccc(F)cc1 | Mu-type opioid receptor (OPRM1, Homo sapiens, UniProt P35372) | ligand displacement | 10 µM | inhibition | 1.33%

Some of these lines once more (study 2):
target | remaining activity
Cyclin-dependent kinase 14 (CDK14, Homo sapiens, UniProt O94921) | 106%
Dual specificity mitogen-activated protein kinase kinase 6 (MAP2K6, Homo sapiens, UniProt P52564) | 95.1%
